Published values from different studies.
Every numbered part comes from another study and shows a few of its results, in no order.

Set 1
Target: Histone acetyltransferase KAT6A, winged helix 2, GST fusion (KAT6A, Homo sapiens, UniProt Q92794, residues 85-181)
Method: protein binding microarray
Molecule type: double-stranded DNA, one strand shown
Medium: in vitro
Tested at: not given
Setting: 8-mer, flanks averaged, mean of 2 arrays, mostly near background
Relative to: not given
Direction: higher = stronger binding
Construct (chain): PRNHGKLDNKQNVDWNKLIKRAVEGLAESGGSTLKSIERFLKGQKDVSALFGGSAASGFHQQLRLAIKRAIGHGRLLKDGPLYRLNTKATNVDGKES
The E-score of `ATTGTGTG` is reported as -0.0833.
`AGGAAAGA` gave an E-score of 0.0517.
For `AGCTCTAT`, the E-score was -0.103.
`ACCGGAAT` gave an E-score of -0.203.
The E-score of `ACGGGTCG` is reported as 0.12.
`TCAGACGA` gave an E-score of -0.102.
`AGAGGGCT` has an E-score of -0.0546.
For `CGTATTGA`, the E-score was -0.138.
The E-score of `CATCGTGG` is reported as -0.0121.
For `GATAATAC`, the E-score was 0.13.

Set 2
Target: Interferon regulatory factor 3, full length, phosphomimetic (IRF3, Homo sapiens, UniProt Q14653, residues 1-427, S386D/S396D/S398D/S402D/T404D/S405D)
Method: protein-binding microarray
Molecule type: double-stranded DNA, one strand shown
Medium: in vitro
Tested at: 2540 nM top
Setting: 60-bp whole probe
With: salmon DNA 0.4 mg/ml
Relative to: random background probes
Direction: higher = stronger binding
All sequences stand within: GCCTAGCAC … GTCTTGATTCGCTTGACGCTGCTG
Target sequence (chain): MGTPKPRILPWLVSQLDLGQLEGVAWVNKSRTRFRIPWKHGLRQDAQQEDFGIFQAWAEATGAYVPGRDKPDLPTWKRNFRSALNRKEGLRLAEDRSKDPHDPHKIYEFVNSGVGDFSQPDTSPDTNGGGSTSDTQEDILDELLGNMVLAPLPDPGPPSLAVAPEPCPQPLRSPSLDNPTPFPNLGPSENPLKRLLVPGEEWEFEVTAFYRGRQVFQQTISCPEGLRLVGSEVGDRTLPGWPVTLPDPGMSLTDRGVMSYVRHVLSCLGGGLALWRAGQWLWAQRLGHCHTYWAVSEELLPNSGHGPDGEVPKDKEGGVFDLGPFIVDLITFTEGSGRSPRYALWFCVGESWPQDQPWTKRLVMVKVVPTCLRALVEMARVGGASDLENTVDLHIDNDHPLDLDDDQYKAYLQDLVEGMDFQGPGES
Under “fitted relative affinity”, `TACGGACTGGGACTGGGGACGTGCTAG` is recorded as -0.723 z-score.
`AAGCAAAAATGATTGGTTGAGTGCTAG`: “fitted relative affinity” -0.573 z-score.
`TTAGGGATCGGTATCGGTTAGTGCTAG`: “fitted relative affinity” 3.19 z-score.
`TCCCAAGTCTTGTTTTACAATGTGCTA`: “fitted relative affinity” 0.564 z-score.
`TTAGATTTCGGGTCTGGATTAGTGCTA` — result for “fitted relative affinity”: 1.94 z-score.

Set 3
Target: Sal-like protein 4, full length isoform B (SALL4, Homo sapiens, UniProt Q9UJQ4-2, residues 1-616)
Method: universal PBM
Molecule type: double-stranded DNA, one strand shown
Medium: in vitro
Tested at: not given
Setting: 8-mer, flanks averaged, mean of replicates
Direction: higher = stronger binding
Residues (chain): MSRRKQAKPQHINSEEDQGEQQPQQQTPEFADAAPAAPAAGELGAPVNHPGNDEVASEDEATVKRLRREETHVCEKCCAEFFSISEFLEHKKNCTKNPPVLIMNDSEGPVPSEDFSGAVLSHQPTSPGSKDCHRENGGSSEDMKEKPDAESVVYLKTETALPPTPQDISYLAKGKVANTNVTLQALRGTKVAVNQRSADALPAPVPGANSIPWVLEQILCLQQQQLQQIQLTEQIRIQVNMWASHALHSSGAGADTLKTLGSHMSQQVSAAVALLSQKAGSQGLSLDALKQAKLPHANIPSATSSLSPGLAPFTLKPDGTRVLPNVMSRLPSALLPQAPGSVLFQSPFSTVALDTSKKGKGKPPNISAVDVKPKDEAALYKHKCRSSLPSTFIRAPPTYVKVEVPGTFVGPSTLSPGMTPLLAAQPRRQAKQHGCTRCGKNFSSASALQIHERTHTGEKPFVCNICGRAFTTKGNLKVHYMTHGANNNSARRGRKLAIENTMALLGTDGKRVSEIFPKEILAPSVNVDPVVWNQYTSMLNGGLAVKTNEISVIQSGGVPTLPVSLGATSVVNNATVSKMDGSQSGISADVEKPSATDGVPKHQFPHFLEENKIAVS
`AGTCTATC` has an E-score of -0.00757.
`GTCGACTA` has an E-score of 0.0853.
`CAAGCGAA` has an E-score of -0.113.
`AAACGAGT` has an E-score of 0.0808.
With `GGAACGCC` the E-score was -0.247.
For `CTTACGGA`, the E-score was -0.161.
`CGCAAGTC` has an E-score of -0.212.

Other studies, line by line
`PhoQ, residues 284 288 289 292 302 303 SCEHLI` has a fold induction of 7.19 (PhoP, residues 12 14 15 18 19 NQFFI (Escherichia coli, UniProt P23836); Sort-seq, refers to: YFP reporter; E. coli; PhoQ-PhoP variant library, with: 10 µM Mg2+; relative to: high Mg2+ state, higher = stronger signaling).

Excerpt of the above (set 1):
For `AGCTCTAT`, the E-score was -0.103.
`ACCGGAAT` gave an E-score of -0.203.
